Literature values that unrelated publications cite.
Lines come from different studies, so protocols differ. ± gives the spread as reported.
Sequence of UniProt Q5S007 (whole entry, unmodified, looked up): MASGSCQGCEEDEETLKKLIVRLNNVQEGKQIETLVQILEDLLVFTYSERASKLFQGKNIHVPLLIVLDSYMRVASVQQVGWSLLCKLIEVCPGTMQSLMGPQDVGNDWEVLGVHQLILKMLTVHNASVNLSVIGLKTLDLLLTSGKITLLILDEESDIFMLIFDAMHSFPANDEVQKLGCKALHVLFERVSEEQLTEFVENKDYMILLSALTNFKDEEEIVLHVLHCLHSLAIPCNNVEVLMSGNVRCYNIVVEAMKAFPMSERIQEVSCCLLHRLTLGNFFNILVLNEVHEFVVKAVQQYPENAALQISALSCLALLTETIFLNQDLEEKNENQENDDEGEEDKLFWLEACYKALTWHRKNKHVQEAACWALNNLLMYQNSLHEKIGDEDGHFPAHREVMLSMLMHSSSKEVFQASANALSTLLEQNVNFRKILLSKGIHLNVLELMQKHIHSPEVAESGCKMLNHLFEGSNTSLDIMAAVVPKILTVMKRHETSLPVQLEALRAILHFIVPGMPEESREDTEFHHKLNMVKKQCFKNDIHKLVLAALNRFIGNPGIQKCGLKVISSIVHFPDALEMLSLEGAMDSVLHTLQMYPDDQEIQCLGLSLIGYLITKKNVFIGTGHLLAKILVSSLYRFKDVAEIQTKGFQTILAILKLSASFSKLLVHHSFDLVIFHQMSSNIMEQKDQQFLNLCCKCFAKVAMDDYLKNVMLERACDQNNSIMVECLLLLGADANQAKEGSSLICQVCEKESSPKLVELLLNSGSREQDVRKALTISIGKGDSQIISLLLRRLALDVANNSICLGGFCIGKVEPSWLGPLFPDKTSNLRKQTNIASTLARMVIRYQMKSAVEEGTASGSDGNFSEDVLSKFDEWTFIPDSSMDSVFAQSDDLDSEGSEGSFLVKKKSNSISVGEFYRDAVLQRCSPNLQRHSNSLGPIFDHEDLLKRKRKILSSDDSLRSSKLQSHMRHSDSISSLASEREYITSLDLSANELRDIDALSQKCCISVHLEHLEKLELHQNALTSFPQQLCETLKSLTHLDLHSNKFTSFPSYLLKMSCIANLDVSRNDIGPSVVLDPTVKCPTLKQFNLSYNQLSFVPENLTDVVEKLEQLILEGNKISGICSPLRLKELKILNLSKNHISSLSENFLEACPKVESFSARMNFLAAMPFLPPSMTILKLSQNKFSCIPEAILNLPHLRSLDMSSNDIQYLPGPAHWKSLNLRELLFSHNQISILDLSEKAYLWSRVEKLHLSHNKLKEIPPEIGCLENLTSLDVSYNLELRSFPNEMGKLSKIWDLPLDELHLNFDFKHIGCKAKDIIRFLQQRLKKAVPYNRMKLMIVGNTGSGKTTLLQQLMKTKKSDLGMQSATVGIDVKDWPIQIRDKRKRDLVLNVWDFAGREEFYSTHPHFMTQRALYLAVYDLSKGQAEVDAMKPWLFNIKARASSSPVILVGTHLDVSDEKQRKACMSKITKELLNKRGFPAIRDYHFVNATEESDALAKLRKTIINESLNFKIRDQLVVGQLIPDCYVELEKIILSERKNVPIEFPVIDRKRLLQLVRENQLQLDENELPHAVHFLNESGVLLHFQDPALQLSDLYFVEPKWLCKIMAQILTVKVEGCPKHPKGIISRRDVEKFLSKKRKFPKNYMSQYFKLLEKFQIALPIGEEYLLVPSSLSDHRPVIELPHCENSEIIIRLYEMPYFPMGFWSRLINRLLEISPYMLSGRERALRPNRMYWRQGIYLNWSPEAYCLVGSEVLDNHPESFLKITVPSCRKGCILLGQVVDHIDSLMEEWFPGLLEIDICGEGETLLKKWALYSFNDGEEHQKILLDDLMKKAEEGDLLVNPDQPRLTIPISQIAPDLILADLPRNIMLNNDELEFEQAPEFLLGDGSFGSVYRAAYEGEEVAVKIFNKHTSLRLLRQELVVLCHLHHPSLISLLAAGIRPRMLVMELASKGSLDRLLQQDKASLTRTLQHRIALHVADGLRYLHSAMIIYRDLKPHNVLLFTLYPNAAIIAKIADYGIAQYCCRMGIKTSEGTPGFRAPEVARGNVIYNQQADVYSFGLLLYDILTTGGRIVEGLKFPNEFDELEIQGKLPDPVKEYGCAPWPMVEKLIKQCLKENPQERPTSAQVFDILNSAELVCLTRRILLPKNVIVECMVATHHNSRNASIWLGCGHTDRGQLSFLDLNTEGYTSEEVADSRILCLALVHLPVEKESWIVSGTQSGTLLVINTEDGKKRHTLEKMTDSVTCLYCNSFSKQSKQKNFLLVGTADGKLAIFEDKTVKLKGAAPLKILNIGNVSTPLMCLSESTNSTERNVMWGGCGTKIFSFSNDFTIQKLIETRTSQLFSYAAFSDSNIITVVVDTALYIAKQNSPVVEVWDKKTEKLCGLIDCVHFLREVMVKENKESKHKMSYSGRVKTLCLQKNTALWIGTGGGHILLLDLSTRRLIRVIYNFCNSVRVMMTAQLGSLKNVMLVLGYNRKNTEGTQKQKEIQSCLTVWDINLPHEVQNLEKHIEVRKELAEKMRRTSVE

SMILES = O=C(c1cccnc1-c1ccncc1)N1CCC(O)(Cc2ccccc2)CC1; system = human, plasma; setting = 300 mg single dose, with: itraconazole; measurement = Cmax; result = 1530 ng/mL
SMILES = COCCc1ccc(OCC(O)CNC(C)C)cc1 (centres unmarked); system = human fasted; setting = 100 mg multiple doses, day 7, mean; measurement = Cmax; result = 39 ng/mL
SMILES = COc1ccc2nc([S@+]([O-])Cc3ncc(C)c(OC)c3C)[nH]c2c1; system = Japanese non-obese humans; setting = intravenous bolus, 20 mg racemic omeprazole; measurement = Cmax; result = 947 ng/mL
SMILES = Cc1nsc(-c2nnc3n2CCN(C(=O)c2ccc(F)cc2)[C@@H]3C)n1; system = human; setting = oral, 60 mg, day 21, fed; measurement = Cmax; result = 423 ng/mL
SMILES = COc1cc2c(Oc3ccc4[nH]c(C)cc4c3F)ccnc2cc1OCC1(N)CC1; system = human; setting = 16 mg/day, two cycles; measurement = Cmax; result = 93.7 ± 27.8 ng/mL
SMILES = C=CC(=O)N1CCC([C@@H]2CCNc3c(C(N)=O)c(-c4ccc(Oc5ccccc5)cc4)nn32)CC1; system = human patients; setting = oral, 320 mg once daily, day 1; measurement = Cmax; result = 683 ± 341 ng/mL
SMILES = C[C@@H](Oc1ccc(S(C)(=O)=O)cc1C(=O)N1C[C@@H]2C[C@]2(c2cc(C(F)(F)F)on2)C1)C(F)(F)F; system = human; setting = oral, 50 mg, solution, fasted, single dose; measurement = Cmax; result = 865 nM
SMILES = Cc1cc(C)c(CNC(=O)c2cc(Cl)c3c(c2C)O[C@@](C)([C@H]2CC[C@H](N(C)C)CC2)O3)c(=O)[nH]1; system = healthy human; setting = 25 mg, arithmetic mean; measurement = Cmax; result = 114 ng/mL
SMILES = Nc1cc(C(F)(F)F)c(-c2nc(N3CCOCC3)nc(N3CCOCC3)n2)cn1; tested on = LRRK2 (Homo sapiens, UniProt Q5S007, G2019S); assay = enzyme activity; setting = 10 µM; scale = baseline: untreated; measurement = remaining activity; result = 80%
SMILES = COc1cccc2c1C(=O)c1c(O)c3c(c(O)c1C2=O)C[C@@](O)(C(=O)CO)C[C@@H]3O[C@H]1C[C@H](N)[C@H](O)[C@H](C)O1; system = human, normal weight, plasma; setting = intravenous infusion, 60 mg/m^2, 40 min infusion; measurement = Cmax; result = ~1000 nM
SMILES = CNCc1cc(-c2ccccc2F)n(S(=O)(=O)c2cccnc2)c1; system = human; setting = 20 mg, single dose, fasted; measurement = Cmax; result = 16.3 ng/mL
